Assay results of several laboratories.
Compare with care: the assays were run in different laboratories. Values after ≈ are worked out from the molar mass of the structure shown.
Organism: Enterococcus faecium

Compound	test	test system	conditions	quantity	result
CN[C@H](CC(C)C)C(=O)N[C@H]1C(=O)N[C@@H](CC(N)=O)C(=O)N[C@H]2C(=O)N[C@H]3C(=O)N[C@H](C(=O)N[C@H](C(=O)O)c4cc(O)cc(O)c4-c4cc3ccc4O)[C@H](O)c3ccc(c(Cl)c3)Oc3cc2cc(c3O[C@@H]2O[C@H](CO)[C@@H](O)[C@H](O)[C@H]2O[C@H]2C[C@](C)(N)[C@H](O)[C@H](C)O2)Oc2ccc(cc2Cl)[C@H]1O	agar dilution	compound-susceptible	64 isolates	MIC50	1 µg/mL (≈ 0.69 µM)
C/C=C(\C)c1cc(O)c(C)c(OC(=O)c2c(C)cc(O)c(Cl)c2O)c1	broth microdilution	36711		MIC	8 µg/mL
CCCCN(C(=O)Nc1cc(-c2ccc(Cl)c(Cl)c2)sc1C(=O)O)c1ccccc1		DSM 20477	together with: folic acid 1 µg/mL	MIC	16 µM
CN[C@H](CC(C)C)C(=O)N[C@H]1C(=O)N[C@@H](CC(N)=O)C(=O)N[C@H]2C(=O)N[C@H]3C(=O)N[C@H](C(=O)N[C@H](C(=O)O)c4cc(O)cc(O)c4-c4cc3ccc4O)[C@H](O)c3ccc(c(Cl)c3)Oc3cc2cc(c3O[C@@H]2O[C@H](CO)[C@@H](O)[C@H](O)[C@H]2O[C@H]2C[C@](C)(N)[C@H](O)[C@H](C)O2)Oc2ccc(cc2Cl)[C@H]1O		Enterococcus faecium	40 strains	MIC90	> 32 µg/mL
Cc1ccc(CCC(=O)Nc2nnc(S(N)(=O)=O)s2)cc1		NR-31933		MIC	0.184 µM
CC(=O)NC[C@H]1CN(c2ccc(N3CCOCC3)c(F)c2)C(=O)O1		-30 vancomycin-intermediate, mice, systemic infection	intravenous, 2 and 8 h post-infection, survival over 7 days	ED50	24.7 mg/kg
Cc1c2c(nn1C)CSCc1cc(n(C)n1)CSc1cc(c3ccccc3c1)OCCCc1c(C(=O)O)n(C)c3c-2c(Cl)ccc13	broth microdilution MIC		25 µM	number of isolates	9
CO[C@H]1[C@H](O[C@H]([C@H]2O[C@@H](n3ccc(=O)[nH]c3=O)[C@H](O)[C@@H]2O)[C@H](NCCCNC(=O)[C@@H](NC(=O)[C@@H](NC(=O)N[C@H](C(=O)O)C(C)C)[C@@H]2CCN=C(N)N2)[C@@H](O)C(C)C)C(=O)O)O[C@H](CN)[C@H]1O	resazurin microplate	NR-32065		MIC90	> 35 µg/mL
CC1(C)S[C@@H]2[C@H](NC(=O)[C@H](N)c3ccccc3)C(=O)N2[C@H]1C(=O)O	broth microdilution	36711		MIC	> 64 µg/mL
CC(=O)NC[C@H]1CN(c2ccc(N3CCOCC3)c(F)c2)C(=O)O1		HM-970		MIC	2.96 µM
C/C=C(\C)c1cc(OC(=O)c2c(C)c(Cl)c(O)c(Cl)c2O)c(C)c(O)c1C(=O)O	broth microdilution	35682		MIC	> 64 µg/mL
CC[C@H]1OC(=O)[C@H](C)[C@@H](O[C@H]2C[C@@](C)(OC)[C@@H](O)[C@H](C)O2)[C@H](C)[C@@H](O[C@@H]2O[C@H](C)C[C@H](N(C)C)[C@H]2O)[C@](C)(O)C[C@@H](C)/C(=N\OCOCCOC)[C@H](C)[C@@H](O)[C@]1(C)O	agar dilution	vancomycin-intermediate, 25 isolates		MIC50	> 128 µg/mL

A few entries again:
Compound	test	test system	conditions	quantity	result
CN[C@H](CC(C)C)C(=O)N[C@H]1C(=O)N[C@@H](CC(N)=O)C(=O)N[C@H]2C(=O)N[C@H]3C(=O)N[C@H](C(=O)N[C@H](C(=O)O)c4cc(O)cc(O)c4-c4cc3ccc4O)[C@H](O)c3ccc(c(Cl)c3)Oc3cc2cc(c3O[C@@H]2O[C@H](CO)[C@@H](O)[C@H](O)[C@H]2O[C@H]2C[C@](C)(N)[C@H](O)[C@H](C)O2)Oc2ccc(cc2Cl)[C@H]1O		Enterococcus faecium	40 strains	MIC90	> 32 µg/mL
